# Results of several laboratories.
# Protocols differ between the studies behind these lines. “And” joins repeats or separate records; there may be more than shown. ± gives the spread as reported.
Structure (SMILES),organism,test,test system,conditions,scale,quantity,value
CCn1c(=O)c(-c2cc[nH]n2)cc2c(C)nc(N)nc21,enterovirus A71,,"suckling mouse, EV71-infected, brain",0.25 mg/kg,direction not given,gliosis score,0
O=C(NCCc1c[nH]c2ccccc12)C(=O)c1c[nH]c2ccc(F)cc12,"Pseudomonas putida, Escherichia coli",bactericidal activity,,"3 x MIC, 2 h",,killing,80 to 95%
O=C(O[C@@H]1O[C@@H]2COC(=O)c3cc(O)c(O)c(O)c3-c3c(cc(O)c(O)c3O)C(=O)O[C@H]([C@H]1O)[C@@H]2O)c1cc(O)c(O)c(O)c1,Streptococcus sobrinus,broth microdilution,,,,MBC/MIC ratio,2
C=CC[C@@H]1c2ccc(OC)c(OC)c2CN2CCc3cc4c(cc3[C@H]12)OCO4,Staphylococcus aureus,,"P2rx7+/+ mice, skin wound infection","dose not given, day 7",baseline: day 0,relative wound size,0.28 and 0.17 and 0.31 and 0.11 and 0.29
NC(=O)c1ncn([C@@H]2O[C@H](CO)[C@@H](O)[C@H]2O)n1,Punta Toro virus,,Vero,,,EC50,50 µM
Cc1nc2[nH]c(=O)n(O)c(=O)c2s1,Amaranthus retroflexus,,,"750 g/ha, 21 days, pre-emergence, glasshouse pot",,growth inhibition,0%
O=C(O)c1cn(C2CC2)c2cc(N3CCNCC3)c(F)cc2c1=O,Bacillus subtilis,bacterial cytological profiling,ATCC 6633,concentration not given,,DNA area,1.4 µm² and 1.75 µm² and 1.59 µm²
CCc1nn(C)c2nc(-c3ccc(C(=O)O)cc3)nc(NCc3ccc(F)cc3)c12,Cryptosporidium parvum,,HCT-8,"3 x EC90, 3 h",baseline: DMSO control,parasite number,74.8% and 92.2% and 97% and 87.6%
NC(=O)c1ncn([C@@H]2O[C@H](CO)[C@@H](O)[C@H]2O)n1,Cucumber mosaic virus,,,500 µg/mL,,inactivation activity,51% and 54% and 52%
CC1(C)S[C@@H]2[C@H](NC(=O)[C@H](N)c3ccccc3)C(=O)N2[C@H]1C(=O)O,Bacillus subtilis,bacterial cytological profiling,ATCC 6633,,,DNA perimeter,5.98 µm and 6.49 µm and 5.8 µm
N=C(N)c1ccc(OCc2cc(COc3ccc(C(=N)N)cc3)cc(-c3ccccc3)c2)cc1,Escherichia coli,checkerboard,mcr-1 polymyxin-resistant,"concentration not given, 20 h, with: rifampicin",,MIC of compound in combination,3.13 µg/mL
CC1(C)S[C@@H]2[C@H](NC(=O)[C@H](N)c3ccccc3)C(=O)N2[C@H]1C(=O)O,Pseudomonas aeruginosa,,clinical isolate RKI-No_481/15,,,MIC,> 16 µg/mL
CO[C@H]1/C=C/O[C@@]2(C)Oc3c(C)c(O)c4c(O)c(c(/C=N/N5CCN(C)CC5)c(O)c4c3C2=O)NC(=O)/C(C)=C\C=C\[C@H](C)[C@H](O)[C@@H](C)[C@@H](O)[C@@H](C)[C@H](OC(C)=O)[C@@H]1C,Bacillus subtilis,bacterial cytological profiling,ATCC 6633,concentration not given,,DNA area,1.15 µm² and 1.01 µm² and 1.17 µm²
CCC(CC)COC(=O)[C@H](C)N[P@](=O)(OC[C@H]1O[C@@](C#N)(c2ccc3c(N)ncnn23)[C@H](O)[C@@H]1O)Oc1ccccc1,human respiratory syncytial virus,"viral replication, viral protein ELISA","HEp-2, A2",5 days,,EC50,0.04 ± 0.003 µM
CC(C)n1ncc2c(C(=O)NCC3(C)CNC3)cc(C3CC3)nc21,enterovirus A71,,Tainan/4643/1998,0.1 µM,,plaque area,85.6% and 75.5%
O=c1[nH]c2ncsc2c(=O)n1O,Amaranthus retroflexus,,,"750 g/ha, 21 days, post-emergence, glasshouse pot",,growth inhibition,34.5%
CCCCCCCCC(=O)OC[C@H]1O[C@@](C#N)(c2ccc3c(N)ncnn23)[C@H](O)[C@@H]1O,human respiratory syncytial virus,"viral replication, viral protein ELISA","HEp-2, A2",5 days,,EC50,0.49 ± 0.057 µM
O=c1c(-c2nc3ccccc3s2)cc2c(n1NS(=O)(=O)c1ccccc1)CCCC2,Human mastadenovirus B,"viral replication, plaque reduction","HEp-2 cells, type 7",non-toxic concentration,,reduction,10%
COCC(=O)N1CCC[C@H](C(=O)NCc2nc(-c3ccc(C#N)cc3)cs2)C1,Plasmodium falciparum,SYBR Green,3D7,72 h,,EC50,0.031 ± 0.0035 µM
N=C(N)c1cccc(OCc2ccc(COc3cccc(C(=N)N)c3)cc2)c1,Escherichia coli,,BW25113,"concentration not given, lowest-FICI combination, with: novobiocin",,MIC in combination,50 µg/mL
COC(=O)[C@H](Cc1ccc(O)cc1)NCc1cc2ccccc2nc1SC,Pseudomonas aeruginosa,,,"16 µg/mL, with: pentamidine 100 µM",baseline: control,growth,55.6%
Cc1ccc(N(c2ccc(NC(=O)CN(C)c3ccccc3N3CCCC3=O)cc2)C(C)C)cc1,Plasmodium falciparum,"gametocyte viability, luciferase",stage V gametocytes,48 h,,EC50,0.123 µM
Cc1cc(OC(C)C)ccc1C(=O)C(C)(C)NC(=O)c1sccc1C,Botrytis cinerea,mycelial growth,B05.10,0.1 µg/mL,,inhibition,94.5 ± 6.3%
N#C[C@@]1(c2ccc3c(N)ncnn23)O[C@H](COC(=O)C2CCCCC2)[C@@H](O)[C@H]1O,human respiratory syncytial virus,RT-PCR,"A2, BALB/c mouse","oral, twice daily, dose not given, day 4 post-infection",,lung viral RNA reduction,1.18 log10
Nc1nc(-c2ccccc2)nc2[nH]nc(Nc3ccc(C(F)(F)F)cc3)c12,coxsackievirus B3,,"31-1-93, NMRI mice, CVB3 chronic myocarditis","oral, 100 mg/kg twice daily, day 2, dosed days 1 to 7, score scale 0 to 7",direction not given,clinical score,0
[H]/N=C(\N/C(=N/[H])NCCCCCCNC(=N)NC(=N)Nc1ccc(Cl)cc1)Nc1ccc(Cl)cc1,Streptococcus sobrinus,,,"MIC, 120 min, initial pH 7.4",,final pH,> 5.5
C#CCON=C1C=CC(=C(C#N)c2ccccc2)C=C1,Pichia norvegensis,broth dilution,ATCC 96139,"48 h, 37 °C",,MFC,64 µg/mL
C[C@@H]1O[C@@H](OC[C@H]2O[C@@H](Oc3c(-c4ccc(O)c(O)c4)oc4cc(O)cc(O)c4c3=O)[C@H](O)[C@@H](O)[C@@H]2O)[C@H](O)[C@H](O)[C@H]1O,Streptococcus sobrinus,,,500 µg/disc,,inhibition zone diameter,14.5 ± 1.5 mm
CC(=O)NC[C@H]1CN(c2ccc(N3CCOCC3)c(F)c2)C(=O)O1,Streptococcus pneumoniae,,"penicillin-resistant, 10 isolates",serum 25%,,MIC50,1 µg/mL
O=c1c(O)c(-c2ccc(O)cc2)oc2cc(O[C@@H]3O[C@H](CO)[C@@H](O)[C@H](O)[C@H]3O)cc(O)c12,Streptococcus sobrinus,,ATCC 33478,,,MBC,400 µg/mL
CN(C)[C@@H]1C(O)=C(C(N)=O)C(=O)[C@@]2(O)C(O)=C3C(=O)c4c(O)cccc4[C@@](C)(O)[C@H]3C[C@@H]12,Bacillus subtilis,bacterial cytological profiling,ATCC 6633,concentration not given,,DNA area,1.06 µm² and 0.98 µm² and 1.04 µm²

# Repeated from above:
Structure (SMILES),organism,test,test system,conditions,scale,quantity,value
Nc1nc(-c2ccccc2)nc2[nH]nc(Nc3ccc(C(F)(F)F)cc3)c12,coxsackievirus B3,,"31-1-93, NMRI mice, CVB3 chronic myocarditis","oral, 100 mg/kg twice daily, day 2, dosed days 1 to 7, score scale 0 to 7",direction not given,clinical score,0
O=c1[nH]c2ncsc2c(=O)n1O,Amaranthus retroflexus,,,"750 g/ha, 21 days, post-emergence, glasshouse pot",,growth inhibition,34.5%
